Measured values collected from several papers.
Compare with care: the assays were run in different laboratories.
Sample: plasma

Cc1cc(C(=O)N[C@@H](CC(=O)NC(C)(C)C)C(=O)NCCNC(=O)c2cccc(-n3cccn3)c2)no1
AUC (mouse; oral, 1 mg/kg): 3.3 ng·h/mL

O=S(=O)(N[C@H]1CCC[C@@H](N2c3ccccc3CCc3ccccc32)[C@@H]1O)c1ccc(OC(F)(F)F)cc1
AUC (mouse; intravenous, 1 mg/kg): 495 ng·h/mL

O=C1CCC(N2C(=O)c3ccc(N4CCC(C(=O)N5CCC(CCN6CCC(CNC(=O)c7cccc(-c8noc(C(F)(F)F)n8)c7)(c7nc(-c8ccccc8)cs7)CC6)CC5)CC4)cc3C2=O)C(=O)N1 (centres unmarked)
AUC (CD-1 mouse; oral, 30 mg/kg): 826 ng·h/mL

O=S(=O)(N[C@H]1CCO[C@@H](C2c3ccccc3CCc3ccccc32)C1)c1ccc(OC(F)(F)F)cc1
AUC (mouse; oral, 30 mg/kg): 12900 ng·h/mL

COC1C=COC2(C)Oc3c(C)c(O)c4c(c3C2=O)C2=NC3(CCN(CC(C)C)CC3)NC2=C(NC(=O)C(C)=CC=CC(C)C(O)C(C)C(O)C(C)C(OC(=O)c2cncnc2)C1C)C4=O (centres unmarked)
AUC (female CD-1 mouse; intravenous, 5 mg/kg): 21200 ng·h/mL

CN[C@H](CC(C)C)C(=O)N[C@H]1C(=O)N[C@@H](CC(N)=O)C(=O)N[C@H]2C(=O)N[C@H]3C(=O)N[C@H](C(=O)N[C@H](C(=O)N[C@H](CCCNC(=N)N)C(N)=O)c4cc(O)cc(O)c4-c4cc3ccc4O)[C@H](O)c3ccc(c(Cl)c3)Oc3cc2cc(c3O[C@@H]2O[C@H](CO)[C@@H](O)[C@H](O)[C@H]2O[C@H]2C[C@](C)(N)[C@H](O)[C@H](C)O2)Oc2ccc(cc2Cl)[C@H]1O
AUC (female CD-1 mouse; intravenous, 1 mg/kg, single dose): 1800 ng·h/mL

COC1C=COC2(C)Oc3c(C)c(O)c4c(c3C2=O)C2=NC3(CCN(CC(C)C)CC3)NC2=C(NC(=O)C(C)=CC=CC(C)C(O)C(C)C(O)C(C)C(OC(=O)Nc2cscn2)C1C)C4=O (centres unmarked)
AUC (female CD-1 mouse; intravenous, 5 mg/kg): 33900 ng·h/mL

Cc1cc(C(=O)N[C@@H](CC(=O)NC(C)(C)C)C(=O)NCCNC(=O)c2cc(-c3ccccc3)ccn2)no1
AUC (mouse; intravenous, 0.1 mg/kg): 14.8 ng·h/mL

COC1C(c2ccc(Cl)c(Cc3ccc(OC4CCOC4)cc3)c2)OC(CO)C(O)C1O (centres unmarked)
AUC (CD-1 mouse; intravenous, 5 mg/kg): 12900 ng·h/mL

O=C(Nc1ccc(C(F)F)cc1)[C@H](CC1CCCCC1)Nc1nn2c(=O)ccnc2s1
AUC (female nude mouse; intravenous, 1 mg/kg): 554 ng·h/mL

COc1ccccc1NC(=O)OC1C(C)C(OC)C=COC2(C)Oc3c(C)c(O)c4c(c3C2=O)C2=NC3(CCN(CC(C)C)CC3)NC2=C(NC(=O)C(C)=CC=CC(C)C(O)C(C)C(O)C1C)C4=O (centres unmarked)
AUC (female CD-1 mouse; intravenous, 5 mg/kg): 22700 ng·h/mL

A few entries again:
Cc1cc(C(=O)N[C@@H](CC(=O)NC(C)(C)C)C(=O)NCCNC(=O)c2cccc(-n3cccn3)c2)no1
AUC (mouse; oral, 1 mg/kg): 3.3 ng·h/mL
